Experimental data of several laboratories.
± marks the error that the study gave. Bridges are numbered along the chain shown (N, C = ends). Where no end group is shown, it is not given here.

Substance | assay | system | setting | how to read | measurement | result
C[C@H]1CNCCc2ccc(Cl)cc21 |  | male Sprague-Dawley rat, plasma | subcutaneous, 3 mg/kg, single dose |  | AUC(0-t) | 184 ng·h/mL
Nc1nc(N)nc(N)n1 |  | CD IGS rat, female, non-pregnant, serum | oral, 1000 mg/kg/day, 10 days, with rectangular renal crystals |  | serum concentration | > 73 µg/mL
CCCCCOc1ccc(-c2ccc(-c3ccc(C(=O)N[C@H]4C[C@@H](O)[C@@H](OCC[N+](C)(C)C)NC(=O)[C@@H]5[C@@H](O)[C@@H](C)CN5C(=O)[C@H]([C@@H](C)O)NC(=O)[C@H]([C@H](O)[C@@H](O)c5ccc(O)cc5)NC(=O)[C@@H]5C[C@@H](O)CN5C(=O)[C@H]([C@@H](C)O)NC4=O)cc3)cc2)cc1 |  | healthy adult humans, plasma | subcutaneous, 10 mg, single dose, median |  | Vz/F | 78.4 L
CC(=O)N[C@H](CCCCNC(=O)C(C)F)C(=O)N[C@@H](CS)C(=O)N[C@@H](CS)C(=O)N[C@@H](CCC(=O)O)C(=O)N[C@@H](Cc1c[nH]cn1)C(=O)N[C@H](Cc1ccccc1)C(=O)N[C@@H](CCCNC(=N)N)C(=O)N[C@@H](Cc1c[nH]c2ccccc12)C(=O)N[C@@H](CS)C(=O)N[C@@H](CCCNC(=N)N)C(=O)N1CCC[C@H]1C(=O)N[C@H](C(N)=O)C(C)C (stereo partly shown) [fluorine-18 labelled] |  | nude mice, A375M xenograft, stomach | intravenous, 2 h |  | tissue uptake | 0.44 ± 0.02 %ID/g
CSCC[C@@H]1NC(=O)[C@H](CC(=O)O)NC(=O)CNC(=O)[C@H](CCCNC(=N)N)NC(=O)[C@H](C)NC(=O)[C@H](CCC(=O)O)NC(=O)[C@H](CCCNC(=N)N)NC(=O)[C@@H]2CSSC[C@@H]3NC(=O)[C@H](CO)NC(=O)[C@H]([C@@H](C)O)NC(=O)[C@@H]4CCCN4C(=O)[C@H](C)NC(=O)[C@H](Cc4c[nH]c5ccccc45)NC(=O)[C@H](CC(=O)O)NC(=O)CNC(=O)[C@H](CCCNC(=N)N)NC(=O)CNC(=O)[C@H](CCC(N)=O)NC(=O)[C@@H]4CCCN4C(=O)[C@@H](NC(=O)CNC(=O)C(C)F)CSSC[C@H](NC(=O)CNC(=O)[C@H](C)NC(=O)[C@H](CC(C)C)NC(=O)[C@H](CSSC[C@@H](C(=O)NCC(N)=O)NC(=O)[C@H]([C@@H](C)O)NC(=O)[C@H](CCCNC(=N)N)NC(=O)[C@@H]4CCCN4C1=O)NC(=O)[C@H](CC(=O)O)NC(=O)[C@H](CO)NC(=O)[C@H](CC(=O)O)NC(=O)[C@H](CCC(N)=O)NC(=O)[C@H](CO)NC3=O)C(=O)N[C@@H](C(C)C)C(=O)N2 (stereo partly shown) [fluorine-18 labelled] |  | nude mice U-87 MG xenograft, skin | intravenous, 0.5 h |  | tissue uptake | 1.3 ± 0.08 %ID/g
FFPKVAGVAAKVLKKFCTISKKC (disulfide 17-23 (inferred)) (disulfide) | haemolysis | horse erythrocytes | 2 h, 37 °C |  | HC50 | > 128 µM
O[C@H]1CCCN[C@@H]1CCCn1cnc2c(Cl)c(Cl)ccc21 |  | human, plasma | oral, 100 mg single dose, capsule, geometric mean |  | half-life | 6.91 h
CN[C@@](C)(C[18F])C(=O)O |  | SCID mouse U87 xenograft, brain | 30 min, post injection |  | tissue uptake | 0.5 ± 0.1 %ID/g
CC(C)C[C@H](NC(=O)CNC(=O)c1ccc2c(c1)C(=O)OC21c2ccc(O)cc2Oc2cc(O)ccc21)C(=O)N[C@@H](Cc1c[nH]c2ccccc12)C(=O)N[C@@H](CCCNC(=N)N)C(=O)N[C@@H](C)C(=O)N[C@@H](CC(C)C)C(=O)N[C@@H](Cc1c[nH]c2ccccc12)C(=O)N[C@@H](CCCNC(=N)N)C(=O)N[C@@H](CC(C)C)C(=O)N[C@@H](CC(C)C)C(=O)N[C@@H](CCCNC(=N)N)C(=O)N[C@@H](CO)C(=O)N[C@@H](CC(C)C)C(=O)N[C@@H](Cc1c[nH]c2ccccc12)C(=O)N[C@@H](CCCNC(=N)N)C(=O)N[C@@H](CC(C)C)C(=O)N[C@@H](CC(C)C)C(=O)N[C@@H](Cc1c[nH]c2ccccc12)C(=O)N[C@@H](CCCNC(=N)N)C(=O)N[C@@H](C)C(=O)O | no effect | Sprague-Dawley rat, excised skin | 50 µmol/L, 37 °C, FAM-labelled CPP conjugate | reference: free FAM | apparent skin permeability | no effect
CC[C@H](C)[C@H](NC(=O)[C@H](CC(C)C)NC(=O)[C@H](Cc1c[nH]c2ccccc12)NC(=O)[C@H](CCC(N)=O)NC(=O)[C@@H](NC(=O)[C@H](Cc1ccccc1)NC(=O)[C@H](C)NC(=O)[C@H](CCCCNC(=O)COCCOCCNC(=O)COCCOCCNC(=O)CC[C@H](NC(=O)CCCCCCCCCCCCCCCCCCC(=O)O)C(=O)O)NC(=O)[C@H](CCC(N)=O)NC(=O)[C@H](C)NC(=O)[C@@H](NC(=O)[C@H](CCCCN)NC(=O)[C@H](CC(=O)O)NC(=O)[C@H](CC(C)C)NC(=O)C(C)(C)NC(=O)[C@@H](NC(=O)[C@H](CO)NC(=O)[C@H](Cc1ccc(O)cc1)NC(=O)[C@H](CC(=O)O)NC(=O)[C@H](CO)NC(=O)[C@@H](NC(=O)[C@H](Cc1ccccc1)NC(=O)[C@@H](NC(=O)CNC(=O)[C@H](CCC(=O)O)NC(=O)C(C)(C)NC(=O)[C@@H](N)Cc1ccc(O)cc1)[C@@H](C)O)[C@@H](C)O)[C@@H](C)CC)[C@@H](C)CC)C(C)C)C(=O)N[C@@H](C)C(=O)NCC(=O)NCC(=O)N1CCC[C@H]1C(=O)N[C@@H](CO)C(=O)N[C@@H](CO)C(=O)NCC(=O)N[C@@H](C)C(=O)N1CCC[C@H]1C(=O)N1CCC[C@H]1C(=O)N1CCC[C@H]1C(=O)N[C@@H](CO)C(N)=O |  | human, moderate hepatic impairment | subcutaneous, 5 mg | reference: normal hepatic function | tmax difference | 0 h
Cn1cc(Nc2nccc(-c3ccc4c(c3)CN(C3COC3)CC[C@H]4NC(=O)c3cn(C(C)(C)C)nn3)n2)cn1 |  | healthy volunteers, whole blood | dose not given, 14 days, multiple ascending dose | reference: placebo | circulating leukocyte counts | no effect
CCCCCCCCCC[N+](C)(C)C | ultrafiltration | human serum |  |  | unbound fraction in blood | 0.122
C[C@](O)(Cn1ccc2cc(F)ccc21)C(=O)Nc1ccc(C#N)c(C(F)(F)F)c1 | mass spectrometry | mouse, tumour | dose not given |  | tumour concentration | 562 nM
